Measurements pooled from the literature.
Parts stem from different laboratories: compare values within a part only.

Series 1
Target: Fragile X messenger ribonucleoprotein 1, C-terminal low-complexity region (Fmr1, Mus musculus, UniProt P35922)
Method: RNA Bind-n-Seq
Form: RNA
Matrix: in vitro
Concentration: 200 nM
Setting: whole 134-nt RNA, ends assumed
Added: 150 mM LiCl
Relative to: input library
Reading: higher = stronger binding
All molecules: 7-deaza-guanosine replaces G
Strand	log2 enrichment
GGGAGUUCUACAGUCCGACGAUCUGCUGGAGGCAAAAAAUGCCAGCCUGGCGUCGUCCAACAACGACUUGCAGGUGGCCGAGGAGCAGUACCAGAGGCUUAUGGCCAAGGUAGUGGAAUUCUCGGGUGUCAAGG	-3.47
GGGAGUUCUACAGUCCGACGAUCGUCCUGUGCUACACAUCGUAUGUACCGAAUCGGGGAGGGGUUUUUUUGGGGAAAGGGGAAAGUAUUAUGUUACGCCGUUCGGAUCUGCACUGGAAUUCUCGGGUGUCAAGG	0.855
GGGAGUUCUACAGUCCGACGAUCGGAUUGGUAGCUUAUGUCGAUCUUGAUGAAAGAGCAAUUGAUGCUCUCAGGGAAUUUAAUGAAGAAGGAGCUCUGUCUGUACUACAGCAGUGGAAUUCUCGGGUGUCAAGG	0.282

Series 2
Target: RNA binding protein fox-1 homolog 2, RRM domain, GST-SBP tag (RBFOX2, Homo sapiens, UniProt O43251-10, residues 100-194)
Method: RNA Bind-n-Seq
Form: RNA
Matrix: in vitro
Concentration: 365 nM
Setting: natural RNA segment, single round, ends assumed
Relative to: no-protein control
Reading: higher = stronger binding
All sequences stand within: GGGAGUUCUACAGUCCGACGAUC … UGGAAUUCUCGGGUGCCAA
Strand	RBNS enrichment (R)
CUACAGCUUAGAAACCCAAUAUCAGUUGUACUUAACAUCUUUAAGAGCAUGAUCAUAAAGGCUAUUUUGACAGUUCAUUUUAACAUUUAGAGUUGAUAAGGGUUUAUAUC	1.9
CUGAGCCUUGUCACGCGCACUCGCCAAUUAAGAGAUGGACCAGCCAGCAGUCAAGUGCAUUCUCCAGUCCUUGCAAGAAGGAUCAGCCCUUUCUGUGCCAGCCUCGAUCG	0.452
ACAAGAGCGAAACUCUGUCUCAAAAUAAAUAAAAAAUAAAAGACAGAAAGCAAGGGGUGCCUAAAUCUAGACUUGGGGUCCACACCGGGCAGCGGGGUUGCAACCCAGCA	2.35
UGGCUUCUGGGAGCCUUUUGACAGCUGGUCCCUGCCUCGGUUGAUUGUGCAUGGAACUAAAAUGUUAUUGCCUAAUCACUCCAACCCUGCCCCUUUCUGUCCCAUCCUUC	0.44
AAAUGUCUGGCAUUUUAAACUUUUGUAGAAUACAUUAUGUUGGACACUGGAAUAAUACUAUUUAUUUUCACCUGUGAAAAAUGACUUCAUUGUACUUGAAACACCUCCUU	0.511
CCAUCACCUUAGACCACCAAGCCUUGAUUGGUGUUGCCAGUUGUCCUCCUUCCGGGGAAGGAUUUUGCAGUUCUUUGGCUGAAAGGAAGCUGUGCGUGUGUGUGUGUGUA	0.737

Series 3
Target: Prothrombin, mature alpha-thrombin (F2, Homo sapiens, UniProt P00734)
Method: aptamer microarray, sandwich
Form: DNA with 2'F-ANA
Matrix: in vitro
Concentration: 200 nM
Setting: whole 15-mer aptamer, many near background
Added: Cy3 exosite-II aptamer, 400 nM
Reading: higher = stronger binding
Strand	mean fluorescence intensity
GGTTGGTGTGGTTGG (2'F-ANA at 2 5 6 7 8 10 11 12 14 15)	189 a.u.
GGTTGGTGTGGTTGG (2'F-ANA at 1 5 11 12 14)	48.1 a.u.
GGTTGGTGTGGTTGG (2'F-ANA at 1 6 8 10 12 13 14 15)	48 a.u.
GGTTGGTGTGGTTGG (2'F-ANA at 1 2 9 11 12 13)	242 a.u.

Other studies, line by line
Molecule	target	test	test system	conditions	scale	measurement	value
PhoQ, residues 284 288 289 292 302 303 SSCCRF	PhoP, residues 12 14 15 18 19 NNFVT (Escherichia coli, UniProt P23836)	Sort-seq, refers to: YFP reporter	E. coli	PhoQ-PhoP variant library, added: 10 µM Mg2+	relative to: high Mg2+ state, higher = stronger signaling	fold induction	15

Excerpt of the above (other studies, line by line):
Molecule	target	test	test system	conditions	scale	measurement	value
PhoQ, residues 284 288 289 292 302 303 SSCCRF	PhoP, residues 12 14 15 18 19 NNFVT (Escherichia coli, UniProt P23836)	Sort-seq, refers to: YFP reporter	E. coli	PhoQ-PhoP variant library, added: 10 µM Mg2+	relative to: high Mg2+ state, higher = stronger signaling	fold induction	15
